Results pooled from the literature.
Protocols differ between the studies behind these lines. Several values in a cell are separate wells, animals, samples, runs or records. Numbers after ± are the reported error.

By UniProt entry, the sequences of proteins in these tests, tags left out. Residues count along the entry.
UniProt P37136, 32-574 limits assumed: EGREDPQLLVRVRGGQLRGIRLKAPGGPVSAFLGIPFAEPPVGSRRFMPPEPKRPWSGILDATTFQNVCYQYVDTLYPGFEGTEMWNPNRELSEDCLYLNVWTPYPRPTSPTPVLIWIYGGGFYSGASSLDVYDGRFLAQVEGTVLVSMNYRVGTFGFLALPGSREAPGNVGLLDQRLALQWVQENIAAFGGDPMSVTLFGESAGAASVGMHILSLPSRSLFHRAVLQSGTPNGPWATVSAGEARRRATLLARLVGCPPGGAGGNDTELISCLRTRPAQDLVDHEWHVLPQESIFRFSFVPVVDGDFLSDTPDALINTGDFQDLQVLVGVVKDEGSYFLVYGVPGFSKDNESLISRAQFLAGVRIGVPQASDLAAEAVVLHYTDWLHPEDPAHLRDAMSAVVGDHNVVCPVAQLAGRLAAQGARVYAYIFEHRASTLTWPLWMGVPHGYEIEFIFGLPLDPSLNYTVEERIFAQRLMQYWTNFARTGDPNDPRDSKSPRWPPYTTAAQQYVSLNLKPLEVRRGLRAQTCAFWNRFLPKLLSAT

SMILES	target or system	assay	system	conditions	scale	endpoint	result
O=C(CSc1ccccc1)N1CCCC2(C1)Nc1cccnc1N=C2NC1CCCC1 (stereo not shown)	HEK293	cell viability, CellTiter-Glo	–	72 h	–	CC50	> 70000 nM
CC[C@H](C)[C@H](NC(=O)[C@H](C)NC(=O)[C@H](CCC(=O)O)NC(=O)[C@H](CCC(=O)O)NC(=O)[C@H](CC(C)C)NC(=O)[C@H](CCCCN)NC(=O)[C@H](CCCCN)NC(=O)[C@H](CCSC)NC(=O)[C@H](CCC(=O)O)NC(=O)[C@H](Cc1ccc(O)cc1)NC(=O)[C@H](CCC(=O)O)NC(=O)[C@H](CC(C)C)NC(=O)[C@H](CC(=O)O)NC(=O)[C@H](CC(C)C)NC(=O)[C@H](Cc1ccccc1)NC(=O)[C@@H](NC(=O)[C@@H](NC(=O)[C@H](CC(N)=O)NC(=O)[C@@H](NC(=O)[C@H](CCC(N)=O)NC(=O)[C@H](CC(=O)O)NC(=O)[C@H](CC(C)C)NC(=O)[C@@H](N)CO)[C@@H](C)CC)C(C)C)[C@@H](C)O)C(=O)N[C@@H](CCCCN)C(=O)N[C@@H](CCCCN)C(=O)N[C@@H](CC(C)C)C(=O)N[C@@H](CCC(=O)O)C(=O)N[C@@H](CCC(=O)O)C(=O)N[C@@H](CO)C(=O)N[C@@H](Cc1ccc(O)cc1)C(=O)N[C@H](C(=O)N[C@@H](CC(=O)O)C(=O)N[C@@H](CC(C)C)C(=O)N[C@@H](CCCCN)C(=O)N[C@@H](CCC(=O)O)C(=O)N[C@@H](CC(C)C)C(=O)O)[C@@H](C)CC	SARS-CoV-2 Beta pseudovirus	pseudovirus infection, inhibitor, luciferase	Caco-2	24 h	–	IC50	1320 nM
O=C1Cc2ccccc2N1C1CCN([C@@H]2CC[C@H]3CCCc4cccc2c43)CC1	nociceptin receptor (human)	BRET	–	–	reference: N/OFQ as unbiased standard, G protein over β-arrestin 2	bias factor	0.46
Cc1cc(C(=O)N[C@@H](Cc2cccc3ccccc23)C(=O)N[C@@H](CC(C)C)C(=O)N[C@H](C=O)C[C@@H]2CCCNC2=O)no1	Enterovirus A71	viral replication, RT-qPCR	RD	three days	–	EC50	10 ± 10 nM
Cc1ccc(S(=O)(=O)Nc2cccc(C(=O)NC3CCN(c4ncnc5[nH]cnc45)CC3)c2)cc1	monkeypox virus E1/E12	–	–	3.125 µM	–	inhibition	16.4% and 10.3%
NCc1ccc(-c2ncc(OCC3CCNCC3)nc2-c2ccc(-c3ccoc3)cc2)cc1	Zika virus	–	ZIKV-FLR, C57BL/6 mice, interferon receptor knockout	30 mg/kg/day, 3 days, mean survival	–	survival time	15.1 days
CS(=O)(=O)Cc1onc(-c2cccc(Cl)c2)c1-c1ccnc(N[C@@H]2CCN(C(=O)c3nccs3)C2)n1	Plasmodium falciparum	parasite growth	3D7 A10	concentration not given, asexual blood stage	–	activity class	active
CCOP(=O)(OCC)ON1C(=O)c2cccc3cccc(c23)C1=O	Ache (Rattus norvegicus, UniProt P37136)	enzyme activity, inhibitor, discontinuous Ellman	rat, postnatal day 12, rat lung homogenate	15 min, 37 °C	–	IC50	30 nM
O=C(NC1CCN(c2ncnc3[nH]cnc23)CC1)c1cccc(NS(=O)(=O)c2ccc([N+](=O)[O-])cc2)c1	SARS-CoV-2	–	Wuhan-Hu-1	0.823 µM	reference: untreated infected cells	relative infection	57.7%
CC[C@H](C)[C@H](NC(=O)[C@H](C)NC(=O)[C@H](CCC(=O)O)NC(=O)[C@H](CCC(=O)O)NC(=O)[C@H](CC(C)C)NC(=O)[C@H](CCCCN)NC(=O)[C@H](CCCCN)NC(=O)[C@H](CCSC)NC(=O)[C@H](CCC(=O)O)NC(=O)[C@H](Cc1ccc(O)cc1)NC(=O)[C@H](CCC(=O)O)NC(=O)[C@H](CC(C)C)NC(=O)[C@H](CC(=O)O)NC(=O)[C@H](CC(C)C)NC(=O)[C@H](Cc1ccccc1)NC(=O)[C@H](Cc1ccc(O)cc1)NC(=O)[C@@H](NC(=O)[C@H](CC(N)=O)NC(=O)[C@@H](NC(=O)[C@H](CCC(N)=O)NC(=O)[C@H](CC(=O)O)NC(=O)[C@H](CC(C)C)NC(=O)[C@@H](N)CO)[C@@H](C)CC)C(C)C)C(=O)N[C@@H](CCCCN)C(=O)N[C@@H](CCCCN)C(=O)N[C@@H](CC(C)C)C(=O)N[C@@H](CCC(=O)O)C(=O)N[C@@H](CCC(=O)O)C(=O)N[C@H](C(=O)N[C@@H](Cc1ccc(O)cc1)C(=O)N[C@H](C(=O)N[C@@H](CC(=O)O)C(=O)N[C@@H](CC(C)C)C(=O)N[C@@H](CCCCN)C(=O)N[C@@H](CCC(=O)O)C(=O)N[C@@H](CC(C)C)C(=O)O)[C@@H](C)CC)[C@@H](C)O	SARS-CoV-2 JN.1 pseudovirus	pseudovirus infection, inhibitor, luciferase	Caco-2	24 h, dual mutations	–	IC50	71.4 nM
O=C(O)CC1Sc2nnc(-c3cccs3)n2N=C1c1ccc(Cl)cc1 (stereo not shown)	UGM of Corynebacterium diphtheriae	enzyme activity, inhibitor	–	–	–	Ki	77000 ± 37000 nM
CC(C)[C@H]1CC[C@@H](N2CCC3(CC2)C(=O)NCN3c2ccccc2)CC1	–	twitch contraction, electrical stimulation	NOP(-/-) mice, mouse vas deferens	–	–	Emax	98 ± 1 % inhibition
COc1ccc(S(=O)(=O)Nc2cccc(C(=O)NC3CCN(c4ncnc5[nH]cnc45)CC3)c2)cc1	SARS-CoV-2	–	Wuhan-Hu-1	0.03048 µM	reference: untreated infected cells	relative infection	78.1%
Nc1ccc([As]=O)cc1 (stereo not shown)	RKO	cell viability, MTS	–	–	–	IC50	2990 ± 40 nM
CC#Cc1ccc2c(=O)[nH]nc(Cc3ccc(F)c(C(=O)N4CCN(c5ccc(C#N)cn5)CC4)c3)c2c1	CT26	western blot, measured: STAT1 protein	–	300 nM	–	onset time	16 h
CC[C@H](C)[C@H](NC(=O)[C@H](C)NC(=O)[C@H](CCC(=O)O)NC(=O)[C@H](CCC(=O)O)NC(=O)[C@H](CC(C)C)NC(=O)[C@H](CCCCN)NC(=O)[C@H](CCCCN)NC(=O)[C@H](CCSC)NC(=O)[C@H](CCC(=O)O)NC(=O)[C@H](Cc1ccc(O)cc1)NC(=O)[C@H](CCC(=O)O)NC(=O)[C@H](CC(C)C)NC(=O)[C@H](CC(=O)O)NC(=O)[C@H](CC(C)C)NC(=O)[C@H](Cc1ccccc1)NC(=O)[C@@H](NC(=O)[C@@H](NC(=O)[C@H](CC(N)=O)NC(=O)[C@@H](NC(=O)[C@H](CCC(N)=O)NC(=O)[C@H](CC(=O)O)NC(=O)[C@H](CC(C)C)NC(=O)[C@@H](N)CO)[C@@H](C)CC)C(C)C)[C@@H](C)O)C(=O)N[C@@H](CCCCN)C(=O)N[C@@H](CCCCN)C(=O)N[C@@H](CC(C)C)C(=O)N[C@@H](CCC(=O)O)C(=O)N[C@@H](CCC(=O)O)C(=O)N[C@H](C(=O)N[C@@H](Cc1ccc(O)cc1)C(=O)N[C@H](C(=O)N[C@@H](CC(=O)O)C(=O)N[C@@H](CC(C)C)C(=O)N[C@@H](CCCCN)C(=O)N[C@@H](CCC(=O)O)C(=O)N[C@@H](CC(C)C)C(=O)O)[C@@H](C)CC)[C@@H](C)O	SARS-CoV-2 Gamma pseudovirus	pseudovirus infection, inhibitor, luciferase	Caco-2	24 h	–	IC50	1530 nM
O=C(NC1CCN(c2ncnc3[nH]cnc23)CC1)c1cccc(S(=O)(=O)Nc2ccc(Cl)cc2)c1	SARS-CoV-2	–	Wuhan-Hu-1	7.407 µM	reference: untreated infected cells	relative infection	28.1%
CC[C@H](C)[C@H](NC(=O)[C@H](C)NC(=O)[C@H](CCC(=O)O)NC(=O)[C@H](CCC(=O)O)NC(=O)[C@H](CC(C)C)NC(=O)[C@H](CCCCN)NC(=O)[C@H](CCCCN)NC(=O)[C@H](CCSC)NC(=O)[C@H](CCC(=O)O)NC(=O)[C@H](Cc1ccc(O)cc1)NC(=O)[C@H](CCC(=O)O)NC(=O)[C@H](CC(C)C)NC(=O)[C@H](CC(=O)O)NC(=O)[C@H](CC(C)C)NC(=O)[C@H](Cc1ccccc1)NC(=O)[C@H](Cc1ccccc1)NC(=O)[C@@H](NC(=O)[C@H](CC(N)=O)NC(=O)[C@@H](NC(=O)[C@H](CCC(N)=O)NC(=O)[C@H](CC(=O)O)NC(=O)[C@H](CC(C)C)NC(=O)[C@@H](N)CO)[C@@H](C)CC)C(C)C)C(=O)N[C@@H](CCCCN)C(=O)N[C@@H](CCCCN)C(=O)N[C@@H](CC(C)C)C(=O)N[C@@H](CCC(=O)O)C(=O)N[C@@H](CCC(=O)O)C(=O)N[C@H](C(=O)N[C@@H](Cc1ccc(O)cc1)C(=O)N[C@H](C(=O)N[C@@H](CC(=O)O)C(=O)N[C@@H](CC(C)C)C(=O)N[C@@H](CCCCN)C(=O)N[C@@H](CCC(=O)O)C(=O)N[C@@H](CC(C)C)C(=O)O)[C@@H](C)CC)[C@@H](C)O	SARS-CoV-2 Gamma pseudovirus	pseudovirus infection, inhibitor, luciferase	Caco-2	24 h, dual mutations	–	IC50	620 nM
O=C(c1cccs1)N1CCCC2(C1)Nc1ccccc1N=C2NC1CCCC1 (stereo not shown)	HepG2	cell viability, CellTiter-Glo	–	72 h	–	CC50	39000 nM

Repeated from above:
SMILES	target or system	assay	system	conditions	scale	endpoint	result
O=C1Cc2ccccc2N1C1CCN([C@@H]2CC[C@H]3CCCc4cccc2c43)CC1	nociceptin receptor (human)	BRET	–	–	reference: N/OFQ as unbiased standard, G protein over β-arrestin 2	bias factor	0.46
COc1ccc(S(=O)(=O)Nc2cccc(C(=O)NC3CCN(c4ncnc5[nH]cnc45)CC3)c2)cc1	SARS-CoV-2	–	Wuhan-Hu-1	0.03048 µM	reference: untreated infected cells	relative infection	78.1%
CC[C@H](C)[C@H](NC(=O)[C@H](C)NC(=O)[C@H](CCC(=O)O)NC(=O)[C@H](CCC(=O)O)NC(=O)[C@H](CC(C)C)NC(=O)[C@H](CCCCN)NC(=O)[C@H](CCCCN)NC(=O)[C@H](CCSC)NC(=O)[C@H](CCC(=O)O)NC(=O)[C@H](Cc1ccc(O)cc1)NC(=O)[C@H](CCC(=O)O)NC(=O)[C@H](CC(C)C)NC(=O)[C@H](CC(=O)O)NC(=O)[C@H](CC(C)C)NC(=O)[C@H](Cc1ccccc1)NC(=O)[C@@H](NC(=O)[C@@H](NC(=O)[C@H](CC(N)=O)NC(=O)[C@@H](NC(=O)[C@H](CCC(N)=O)NC(=O)[C@H](CC(=O)O)NC(=O)[C@H](CC(C)C)NC(=O)[C@@H](N)CO)[C@@H](C)CC)C(C)C)[C@@H](C)O)C(=O)N[C@@H](CCCCN)C(=O)N[C@@H](CCCCN)C(=O)N[C@@H](CC(C)C)C(=O)N[C@@H](CCC(=O)O)C(=O)N[C@@H](CCC(=O)O)C(=O)N[C@@H](CO)C(=O)N[C@@H](Cc1ccc(O)cc1)C(=O)N[C@H](C(=O)N[C@@H](CC(=O)O)C(=O)N[C@@H](CC(C)C)C(=O)N[C@@H](CCCCN)C(=O)N[C@@H](CCC(=O)O)C(=O)N[C@@H](CC(C)C)C(=O)O)[C@@H](C)CC	SARS-CoV-2 Beta pseudovirus	pseudovirus infection, inhibitor, luciferase	Caco-2	24 h	–	IC50	1320 nM
